{"data": "Results from different studies", "note": "Every numbered part comes from another study and shows a few of its results, in no order. Substitutions count along the parent as printed."}
{"data": "Block 1", "target": "ABI1, truncated, D143A, DHFR fusion (Arabidopsis thaliana)", "method": "DHFR PCA, deep sequencing", "medium": "yeast", "setting": "methotrexate growth selection, single substitutions", "with": "(+)-ABA 0 µM", "reference": "wild-type fitted maximum", "reading": "higher = stronger binding", "starting sequence": "PYL1, truncated, DHFR fusion (Arabidopsis thaliana); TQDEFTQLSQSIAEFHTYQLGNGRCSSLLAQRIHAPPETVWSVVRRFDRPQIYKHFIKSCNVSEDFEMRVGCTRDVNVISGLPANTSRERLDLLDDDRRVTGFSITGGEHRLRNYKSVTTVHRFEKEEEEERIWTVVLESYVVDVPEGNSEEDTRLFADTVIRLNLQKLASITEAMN; partner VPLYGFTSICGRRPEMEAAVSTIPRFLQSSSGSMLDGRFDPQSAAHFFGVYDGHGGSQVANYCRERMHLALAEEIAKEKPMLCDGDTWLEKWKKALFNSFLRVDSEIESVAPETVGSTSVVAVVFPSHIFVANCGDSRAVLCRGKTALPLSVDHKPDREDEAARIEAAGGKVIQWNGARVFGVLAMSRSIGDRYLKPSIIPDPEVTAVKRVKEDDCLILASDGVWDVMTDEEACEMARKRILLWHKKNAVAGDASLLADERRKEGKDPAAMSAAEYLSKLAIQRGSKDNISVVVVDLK"}
{"Change": "A175T", "relative binding score [%]": 17.8}
{"Change": "S80Q", "relative binding score [%]": 9.38}
{"Change": "D159K", "relative binding score [%]": -4.07}
{"Change": "Y141G", "relative binding score [%]": -4.09}
{"Change": "V76D", "relative binding score [%]": 2.54}
{"Change": "R113A", "relative binding score [%]": 11}
{"Change": "R45L", "relative binding score [%]": -1.47}
{"Change": "L20M", "relative binding score [%]": 25.1}
{"Change": "V78H", "relative binding score [%]": 52.5}
{"Change": "R132E", "relative binding score [%]": 46}
{"Change": "G107S", "relative binding score [%]": 29.5}
{"Change": "Q2V", "relative binding score [%]": 60.7}
{"Change": "I52D", "relative binding score [%]": 32.7}
{"data": "Block 2", "Molecule": "PhoQ, residues 284 288 289 292 302 303 SSTLSG", "method": "Sort-seq", "item": "YFP reporter", "medium": "E. coli", "setting": "PhoQ-PhoP variant library", "with": "10 µM Mg2+", "reference": "high Mg2+ state", "reading": "higher = stronger signaling"}
{"target": "PhoP, residues 12 14 15 18 19 LHTVL (Escherichia coli, UniProt P23836)", "fold induction": 7.67}
{"target": "PhoP, residues 12 14 15 18 19 NQCAL (Escherichia coli, UniProt P23836)", "fold induction": 17.8}
{"target": "PhoP, residues 12 14 15 18 19 TQAML (Escherichia coli, UniProt P23836)", "fold induction": 21.9}
{"data": "Block 3", "target": "Ras GTPase-activating protein-binding protein 1, full length (G3BP1, Homo sapiens, UniProt Q13283)", "method": "RNA Bind-n-Seq", "molecule type": "RNA", "medium": "in vitro", "tested at": "200 nM", "setting": "whole 134-nt RNA, ends assumed", "with": "150 mM LiCl", "reference": "input library", "reading": "higher = stronger binding", "library": "7-deaza-guanosine replaces G", "shared flanks, not repeated": "GGGAGUUCUACAGUCCGACGAUC … UGGAAUUCUCGGGUGUCAAGG", "sequence of UniProt Q13283 (whole entry, looked up)": "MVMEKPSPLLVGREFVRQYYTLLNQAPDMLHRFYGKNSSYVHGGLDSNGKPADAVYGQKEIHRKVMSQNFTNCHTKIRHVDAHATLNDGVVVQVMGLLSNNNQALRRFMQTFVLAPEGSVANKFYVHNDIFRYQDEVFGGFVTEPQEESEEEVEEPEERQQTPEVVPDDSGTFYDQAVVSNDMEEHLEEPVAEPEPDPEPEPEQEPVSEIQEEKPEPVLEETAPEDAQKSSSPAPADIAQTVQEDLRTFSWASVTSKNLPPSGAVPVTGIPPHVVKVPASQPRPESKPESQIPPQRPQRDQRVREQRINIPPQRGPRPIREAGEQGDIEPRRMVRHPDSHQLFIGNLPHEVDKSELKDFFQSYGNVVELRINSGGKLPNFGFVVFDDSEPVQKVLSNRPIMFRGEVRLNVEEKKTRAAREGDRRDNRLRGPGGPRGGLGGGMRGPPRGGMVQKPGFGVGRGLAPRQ"}
{"Strand": "ACCAUGCAGGUGGGCAUCUUUGGGAAGUGGGGCAAGGUGGGGAUAGGGAGGGGGGUAACACUUUGGGAACAGGUGGUCCCAGGUCGUUUC", "log2 enrichment": 0.399}
{"Strand": "GCAGGAAGUAAAAACAAAUGGAAAUGCUUCGGAUAGUGGCAGGGAUGGGGGUUGCUAAGGAAAGGGUGGGAUGGGAGUGGGUAAAGAGUU", "log2 enrichment": 0.32}
{"Strand": "UCCUCAAGUCCUGUGCUACACAUCGUAUGUACCGAAUCGGGGUGGUGGUGGGAAAGUAUUAUGUUACGCCGUUCGGAUCUGCACUUCCAG", "log2 enrichment": 0.101}
{"Strand": "GCAGGAAGUAAAAACAAAUGGAAAUGCUUCGGAUAGUGGCAGGGGUGGGGGUUGCUAGGGAAAGGGUGGGAUGGGAGUGGGUAAAGAGUU", "log2 enrichment": -0.369}
{"Strand": "ACCAUGCAGGUGGGCAUCUUUGGGAAGUGGGGCAAGGGGGGGAUAGGGAGGGGGGUAACACUUUGGGAAAAGGUGGUCCCAGGUCGUUUC", "log2 enrichment": 0.0542}
{"Strand": "UACAGACAACACGCACCCACACAGACACAGAGGGAAGGGGUUGGGAUGGGGACAGGGUGCACAGCAGGGCGGGGUAGGACCCCAGCCCCU", "log2 enrichment": 0.0974}
{"Strand": "UCCUGUGCUACACAUCGUAUGUACCGAAUCGGGGUUUUUGGGGUUUUUGGGGUUUGGGGAAAGUAUUAUGUUACGCCGUUCGGAUCUGCA", "log2 enrichment": 0.427}
{"Strand": "UAACUUUAGAGGAGGAUCUGAUGGAUUUGGCAGUGGACGUGGAUUUGGGGAUGGCUAUAAUGGGUAUGGAGGAGGACCUGGAGGUGGCAA", "log2 enrichment": -0.144}
{"data": "Block 4", "target": "CCNB2, cyclin fold, Cln2 fusion (human)", "method": "yeast growth competition, sequencing", "medium": "yeast", "setting": "weak parent motif", "reference": "not given", "reading": "higher = stronger binding", "starting sequence": "CCP110 docking peptide (human); EKVKRRLDLDIDG"}
{"Change": "EKVKRRLDLDADG [I11A]", "normalised enrichment score": 0.116}
{"Change": "EKVKKRLDLDIDG [R5K]", "normalised enrichment score": 0.0363}
{"Change": "EKVARRLDLDIDG [K4A]", "normalised enrichment score": 0.206}
{"Change": "EKVKRRLDLDIDA [G13A]", "normalised enrichment score": 0.323}
{"Change": "EKAKRRLDLDIDG [V3A]", "normalised enrichment score": -0.354}
{"Change": "EKVKRRADLDIDG [L7A]", "normalised enrichment score": -0.158}
{"Change": "EKVKRRLDLAIDG [D10A]", "normalised enrichment score": 0.467}
{"note": "Repeated from above (block 4):"}
{"Change": "EKVKKRLDLDIDG [R5K]", "normalised enrichment score": 0.0363}
{"Change": "EKAKRRLDLDIDG [V3A]", "normalised enrichment score": -0.354}
{"Change": "EKVKRRADLDIDG [L7A]", "normalised enrichment score": -0.158}
